Experimental data collected from several papers.
Parts stem from different laboratories: compare values within a part only.

Study 1
Target: Histone acetyltransferase KAT6A, winged helix 2, GST fusion (KAT6A, Homo sapiens, UniProt Q92794, residues 85-181)
Method: protein binding microarray
Molecule type: double-stranded DNA, one strand shown
Matrix: in vitro
Tested at: not given
Setting: 8-mer, flanks averaged, mean of 2 arrays, mostly near background
Baseline: not given
Reading: higher = stronger binding
Target sequence (chain): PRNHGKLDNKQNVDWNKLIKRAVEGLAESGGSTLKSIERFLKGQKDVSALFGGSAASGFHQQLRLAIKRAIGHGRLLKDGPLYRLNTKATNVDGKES
With `CGCCCCGC` the E-score was 0.337.
With `AAAAAGCT` the E-score was 0.0425.
The E-score of `TATGCTCA` is reported as 0.00709.
`CGAAAAAG` has an E-score of 0.0791.
For `CTACCTAG`, the E-score was -0.206.
The E-score of `GATCCGAC` is reported as 0.0293.
For `TCAGAGAA`, the E-score was 0.0236.
The E-score of `CGATCATC` is reported as -0.091.
The E-score of `AGCACTCC` is reported as 0.0541.
The E-score of `AGGCGTAC` is reported as 0.0725.
`CTAATTGC` has an E-score of 0.0837.
`TACAGGAA` has an E-score of -0.0368.
The E-score of `GGTAGCCA` is reported as 0.0068.
`AACTAAGT` has an E-score of 0.0159.
For `CATACCTC`, the E-score was 0.0861.
`TAGCTTCA` gave an E-score of -0.0929.

Study 2
Target: Sal-like protein 4, full length isoform B (SALL4, Homo sapiens, UniProt Q9UJQ4-2, residues 1-616)
Method: universal PBM
Molecule type: double-stranded DNA, one strand shown
Matrix: in vitro
Tested at: not given
Setting: 8-mer, flanks averaged, mean of replicates
Reading: higher = stronger binding
The E-score of `AGTCTCGA` is reported as -0.0268.
`CCAAGAAG` gave an E-score of -0.092.
The E-score of `CGCAGCCG` is reported as -0.334.
With `GACCCTCC` the E-score was -0.318.
`AAACCGTA` gave an E-score of 0.0396.
The E-score of `CCGCGCCG` is reported as -0.273.
With `CATTAAGG` the E-score was 0.131.
The E-score of `GAGTACAA` is reported as 0.109.
The E-score of `ATCTGCTC` is reported as 0.0279.
With `ACTAGGGG` the E-score was -0.172.
`TCGTCACA` gave an E-score of 0.0415.
`CACAACAG` gave an E-score of -0.0169.
`ATTCAAAT` has an E-score of 0.338.
`AGGTAGGA` has an E-score of -0.0081.
With `AAGCATCA` the E-score was 0.00978.
`GACACCCC` gave an E-score of -0.303.
`CAAGTTCA` gave an E-score of -0.0104.
`AATCGACC` has an E-score of -0.0575.

Study 3
Target: Fragile X messenger ribonucleoprotein 1, C-terminal low-complexity region (Fmr1, Mus musculus, UniProt P35922)
Method: RNA Bind-n-Seq
Molecule type: RNA
Matrix: in vitro
Tested at: 200 nM
Setting: whole 134-nt RNA, ends assumed
Together with: 150 mM KCl
Baseline: input library
Reading: higher = stronger binding
`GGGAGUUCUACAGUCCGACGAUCCAAGUCCUGUGCUACACAUCGUAUGUACCGAAUCGGUGGAAAAAGGUUUUUUUGGAAAGUAUUAUGUUACGCCGUUCGGAUCUGCACUUCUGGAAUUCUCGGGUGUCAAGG` gave a log2 enrichment of -0.739.
With `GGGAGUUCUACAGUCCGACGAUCCUGCGCGCGGAUUUCCCUCUCUGAGGAAGUUUAUCCUUGUGCCUUCUGGAGGAUUUCUCUCUAGCUCGACUCACUCUGGACUGACUCGCUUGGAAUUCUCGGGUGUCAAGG` the log2 enrichment was -0.678.
The log2 enrichment of `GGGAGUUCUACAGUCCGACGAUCUGUGCUACACAUCGUAUGUACCGAAUCGGGGUUUUUUUGGGGAAAAAAAGGGGAAAAAGGGGAAAGUAUUAUGUUACGCCGUUCGGAUCUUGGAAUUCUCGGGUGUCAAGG` is reported as -0.0869.
For `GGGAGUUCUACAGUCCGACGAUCUCCUGUGCUACACAUCGUAUGUACCGAAUCGGGUUUUUUUGGGUUUUUUUGGGUUUGGGAAAGUAUUAUGUUACGCCGUUCGGAUCUGCAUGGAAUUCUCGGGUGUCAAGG`, the log2 enrichment was 0.241.
`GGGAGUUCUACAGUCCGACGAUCCAAGUCCUGUGCUACACAUCGUAUGUACCGAAUCGGGGCCCGGCCCGGGCCCGGGGAAAGUAUUAUGUUACGCCGUUCGGAUCUGCACUUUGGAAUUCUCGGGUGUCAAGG` has a log2 enrichment of -1.19.
`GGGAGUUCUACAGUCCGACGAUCCACAGACAACACGCACCCACACAGACACAGAGGGAAGGGGUUGGGAUGGGGACAGGGUGCACAGCAGGGCGGGGUAUGACCCCAGCCCCUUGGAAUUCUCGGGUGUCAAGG` gave a log2 enrichment of 1.35.
`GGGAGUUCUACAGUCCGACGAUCUGGGAGGUGGAUUUUGUUUAUUUUUUUAGCUCAUUUCCCGGGGUGGGAAUUUUUUUUUAAUAUGUGUCAUGAAUAAAGUUGUUUUUGAAAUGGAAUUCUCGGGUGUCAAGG` has a log2 enrichment of 0.024.
The log2 enrichment of `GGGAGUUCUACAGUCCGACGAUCCUGUGCUACACAUCGUAUGUACCGAAUCGGGUUUUUUUGGGAAAAAAAGGGUUUUUUUGGGAAAGUAUUAUGUUACGCCGUUCGGAUCUGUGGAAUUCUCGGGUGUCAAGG` is reported as -1.56.
`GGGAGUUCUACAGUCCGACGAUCAGGGAGGUGGAUUUUGUUUAUUUUUUUAGCUCAUUUCCAGGGGUGGGAAUUUUUUUUUAAUAUGUGUCAUGAAUAAAGUUGUUUUUGAAAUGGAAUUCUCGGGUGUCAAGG` gave a log2 enrichment of 0.286.

Study 4
Target: RING finger protein unkempt homolog, zinc fingers 1-6, GST-SBP tag (UNK, Homo sapiens, UniProt Q9C0B0, residues 30-357)
Chain of UniProt Q9C0B0 (30-357, looked up): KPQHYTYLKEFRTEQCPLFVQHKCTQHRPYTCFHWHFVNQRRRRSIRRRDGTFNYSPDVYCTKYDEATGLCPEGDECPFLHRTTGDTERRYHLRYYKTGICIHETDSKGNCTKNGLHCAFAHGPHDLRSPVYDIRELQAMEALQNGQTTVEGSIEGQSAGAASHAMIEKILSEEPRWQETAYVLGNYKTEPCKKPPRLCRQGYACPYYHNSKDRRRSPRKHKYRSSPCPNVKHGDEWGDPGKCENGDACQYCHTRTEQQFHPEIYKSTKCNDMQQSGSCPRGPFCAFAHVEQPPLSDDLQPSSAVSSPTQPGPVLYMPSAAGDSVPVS
Method: RNA Bind-n-Seq
Molecule type: RNA
Matrix: in vitro
Tested at: not given
Setting: RNA with constant flanks, ends assumed
Baseline: input RNA pool
Reading: higher = stronger binding
For `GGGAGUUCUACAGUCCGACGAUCAGGUUGGGCCAUGACCCCUAUAGAUUAGGUCAUGAUGCUUACAGGUUAGGACAAGACCCUUACCGAUCCGGCCAUGAUCCCUACAGACUAACUCCUGAUCCCUAUAGGAUGUCACCUAGACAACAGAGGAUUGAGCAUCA`, the bound/input enrichment was 1.77 ratio.
For `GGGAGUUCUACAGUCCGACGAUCCUGUGUCUGCAGGAGCCUGGGGUGUUCCCACAGGAGGUGGCUGACCGGCUUCUUCAGACUACCGCAUUCCACGGUCUCCUGAAUGAUGGAACUGUGGGAAUUUUCAGAGGUAACCAGAUGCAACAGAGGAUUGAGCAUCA`, the bound/input enrichment was 0.12 ratio.
`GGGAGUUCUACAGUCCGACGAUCUCACCUGUUCAAGAUAUUGAUACCCCAGAGGUUGAUUUAUACCAAUUACAAGUAAAUACACUCCGGAGAUACAAAAGACACUUCAAGCUACCAACCAGACCAGGACUUAAUAAAGCACAACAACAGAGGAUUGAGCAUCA` gave a bound/input enrichment of 0.356 ratio.
`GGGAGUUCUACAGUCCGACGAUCUUUUUAGAGUGUGGGAAAACCAAUCUGAGAAGAACAACUUACCUUGUCCUUGAUGAAGCUGACCGGAUGCUUGAUAUGGGAUUUGAACCCCAGAUAAGGAAAAUUGUGGAUCAAAUAAGACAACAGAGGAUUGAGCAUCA` gave a bound/input enrichment of 0.219 ratio.
`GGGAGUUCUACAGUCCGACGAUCCAAACCAGAAAUACCUCAGAAUUUUCUACUUGUGUAUGUUUUAUUAAUUAUAUAUUUUGUCCGUUGUGUUGUCUUGUAGGAAGUAUAUUUUAAUGUAAGUUGACUUUUAUGACGAGGAAGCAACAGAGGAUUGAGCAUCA` has a bound/input enrichment of 3.36 ratio.
`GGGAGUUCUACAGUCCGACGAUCCCAUUAAAACAGCAAAUAAAACCCAGUGAAGCAUUUUUUAAAGACUAACAGCUUAAUUAAUUCCGAUAUACUUUAAGAGAAAAACUAUUUUAUCCUUCAUGUGAAUAAUGAAUAACAGUACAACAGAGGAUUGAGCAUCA` has a bound/input enrichment of 2.42 ratio.
The bound/input enrichment of `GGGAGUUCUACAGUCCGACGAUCCACUUCUUAAGAGAGAAGAGAGAGGAAGUCAGGGGACACACAGGCUGAGUGGCCGUGUGGCCGUUCUCCUGUCUGUGUAUAAAUAUUUACAUGUUCUGUGUGGUCUGAAUGCAGAAGCUCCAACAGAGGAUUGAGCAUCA` is reported as 0.184 ratio.
With `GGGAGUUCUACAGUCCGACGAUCAGUAAACCUGGCAGCUAUAGAAUACACUAUGUGCAUUUAUAAUAGCUAUUUUAUAUAUUGCCGUGUUCAACAUUUUUAAAUUAAAUGUUUUACAUUCACAAGUGGUGGGGAGUCUUGUCACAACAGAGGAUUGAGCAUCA` the bound/input enrichment was 0.741 ratio.

Study 5
Target: RNA binding protein fox-1 homolog 2, RRM domain, GST-SBP tag (RBFOX2, Homo sapiens, UniProt O43251-10, residues 100-194)
Method: RNA Bind-n-Seq
Molecule type: RNA
Matrix: in vitro
Tested at: 365 nM
Setting: natural RNA segment, single round, ends assumed
Baseline: no-protein control
Reading: higher = stronger binding
Construct (chain): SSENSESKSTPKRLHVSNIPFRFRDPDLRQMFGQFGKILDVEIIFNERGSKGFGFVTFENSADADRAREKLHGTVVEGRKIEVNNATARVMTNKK
`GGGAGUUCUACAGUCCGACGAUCCUGGGGACCAGCACAGCACCUGAAGCCAUGUGGGACAGUUGGGCUUUGUUCAUUCUAGCCACGGGGAUGAAAGGGAUCUUUUGCAUUGCAGAGAUUUUAUAUAUAUUUUGUGGAAUUCUCGGGUGCCAA`: “RBNS enrichment (R)” 0.327.
`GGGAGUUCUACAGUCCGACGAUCCCUUUGCAUGUGAGUAUUAUGUACUACAGUAAGGAAUGGAUGGCUCCUAACUAGCAUGCAACCCUUGGCUUGUUUACUAACCCAAAAGGGCUAAGGCACAGUAUUUGAAAUGGAAUUCUCGGGUGCCAA` — result for “RBNS enrichment (R)”: 38.9.
`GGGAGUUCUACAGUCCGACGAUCAUUCUGAGGUCACAUAACACAUAAAAUUAGUUUCUAUGAGUGUAUACCAUUUAAAGAAUUUUUUUUUCAGUAAAAGGGAAUAUUACAAUGUUGGAGGAGAGAUAAGUUAUUGGAAUUCUCGGGUGCCAA`: “RBNS enrichment (R)” 0.539.
`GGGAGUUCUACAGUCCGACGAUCCAUCUCGCUGCAUCCCCCGAGAGUACACCGGUUGCUCUAGCCACCUGCGGCCCGCCCAUCUGCGCUAGCUGGCCUUCACGCUCUUGAUCGUCUUUCCUUUGUAUUGGAGAUGGAAUUCUCGGGUGCCAA`: “RBNS enrichment (R)” 1.36.
Under “RBNS enrichment (R)”, `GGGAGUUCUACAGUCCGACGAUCGUUCUGCCCAGCCCCCGUCCCGCUCCCACCUAAAGCCUGAGUUGGCUGAGCCAAAUGCCCAGCACUGCCCCCACCUAACUGGGCACUUGUCUAGGGCACACCACCCCCAGUGGAAUUCUCGGGUGCCAA` is recorded as 0.42.
For `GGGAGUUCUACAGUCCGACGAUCCUGUGAGAGAAUGUGUGCAACUACAUGUGUGGGGGCAUGGUAGCUACUGUGUGUGUGAGAUCCUAUAUACCAGCAUGUACCAAGAAUGUGUGUGUAGUUUUAAUUAUGCUUGGAAUUCUCGGGUGCCAA`, “RBNS enrichment (R)” read 29.4.
Under “RBNS enrichment (R)”, `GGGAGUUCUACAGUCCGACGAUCCAUUUCCAGGUAAGAGGAUCAGCGGAGAUAACUAGCAAUUUGGAGGUUAGUGUUUAGCUCUACCAAACCUGAGUCAGCCGAAUGGAAGUUAUAUGGGCCUGUAACACAAAUGGAAUUCUCGGGUGCCAA` is recorded as 0.41.
`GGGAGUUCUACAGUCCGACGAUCUACGGCACUGGAAAGAGUAGAGCCCAGGUGAAGCUUAGGAAAUUGGGAGCUAACACCAAGCAACUGGUUCCGUGGGGGAAGGUUUUAGGGAGCUCAGACUGCUGCUUUCAUGGAAUUCUCGGGUGCCAA` — result for “RBNS enrichment (R)”: 1.83.

Repeated from above (study 2):
The E-score of `AGTCTCGA` is reported as -0.0268.
`ATTCAAAT` has an E-score of 0.338.
`CAAGTTCA` gave an E-score of -0.0104.
`CCAAGAAG` gave an E-score of -0.092.
